Assay results gathered from unrelated publications.
A part holds a random share of what one study measured.
Chain of UniProt P25098 (whole entry, looked up): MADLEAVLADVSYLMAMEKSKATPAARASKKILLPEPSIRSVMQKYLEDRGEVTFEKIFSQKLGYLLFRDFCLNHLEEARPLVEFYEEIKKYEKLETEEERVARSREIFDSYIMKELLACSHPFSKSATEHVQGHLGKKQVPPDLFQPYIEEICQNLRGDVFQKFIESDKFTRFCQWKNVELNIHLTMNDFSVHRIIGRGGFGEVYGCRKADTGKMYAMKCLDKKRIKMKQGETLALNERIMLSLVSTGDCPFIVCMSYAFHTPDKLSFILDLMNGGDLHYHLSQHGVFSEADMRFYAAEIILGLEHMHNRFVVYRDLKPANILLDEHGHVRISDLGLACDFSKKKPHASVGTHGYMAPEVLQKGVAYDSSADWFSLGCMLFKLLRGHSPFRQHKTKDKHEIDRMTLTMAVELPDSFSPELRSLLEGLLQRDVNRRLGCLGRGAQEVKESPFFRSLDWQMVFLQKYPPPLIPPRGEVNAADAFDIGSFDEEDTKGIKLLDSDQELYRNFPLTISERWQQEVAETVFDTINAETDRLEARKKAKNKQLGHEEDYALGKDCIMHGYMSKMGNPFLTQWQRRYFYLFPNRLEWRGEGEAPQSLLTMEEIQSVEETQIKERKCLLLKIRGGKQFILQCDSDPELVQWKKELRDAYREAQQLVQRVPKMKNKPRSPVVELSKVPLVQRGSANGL
Chain of UniProt P29320 (whole entry, looked up): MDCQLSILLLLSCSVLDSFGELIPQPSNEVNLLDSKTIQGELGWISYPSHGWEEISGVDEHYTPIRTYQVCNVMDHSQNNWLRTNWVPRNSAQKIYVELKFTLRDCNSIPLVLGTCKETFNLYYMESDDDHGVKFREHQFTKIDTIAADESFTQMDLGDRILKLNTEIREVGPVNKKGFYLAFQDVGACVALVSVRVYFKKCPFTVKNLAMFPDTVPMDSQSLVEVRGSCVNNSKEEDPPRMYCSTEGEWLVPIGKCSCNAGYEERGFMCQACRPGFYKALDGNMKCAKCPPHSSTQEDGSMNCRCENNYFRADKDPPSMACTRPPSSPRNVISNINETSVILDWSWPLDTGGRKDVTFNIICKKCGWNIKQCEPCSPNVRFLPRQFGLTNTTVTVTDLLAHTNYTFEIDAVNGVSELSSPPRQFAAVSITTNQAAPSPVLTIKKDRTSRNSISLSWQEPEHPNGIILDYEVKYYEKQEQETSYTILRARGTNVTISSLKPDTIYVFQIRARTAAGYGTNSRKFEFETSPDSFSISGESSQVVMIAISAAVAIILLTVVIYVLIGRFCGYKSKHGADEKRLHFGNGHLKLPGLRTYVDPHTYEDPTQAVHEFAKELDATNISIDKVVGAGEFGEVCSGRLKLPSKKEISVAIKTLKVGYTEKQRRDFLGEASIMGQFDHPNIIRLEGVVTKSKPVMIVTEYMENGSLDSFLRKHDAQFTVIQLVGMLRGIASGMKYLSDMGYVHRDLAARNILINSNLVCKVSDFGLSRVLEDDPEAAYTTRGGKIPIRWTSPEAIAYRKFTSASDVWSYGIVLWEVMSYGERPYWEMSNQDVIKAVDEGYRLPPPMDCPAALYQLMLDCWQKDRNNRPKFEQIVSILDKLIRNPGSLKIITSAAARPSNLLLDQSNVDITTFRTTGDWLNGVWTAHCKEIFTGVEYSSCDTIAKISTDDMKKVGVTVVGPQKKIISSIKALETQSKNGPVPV
Chain of UniProt Q02763 (whole entry, looked up): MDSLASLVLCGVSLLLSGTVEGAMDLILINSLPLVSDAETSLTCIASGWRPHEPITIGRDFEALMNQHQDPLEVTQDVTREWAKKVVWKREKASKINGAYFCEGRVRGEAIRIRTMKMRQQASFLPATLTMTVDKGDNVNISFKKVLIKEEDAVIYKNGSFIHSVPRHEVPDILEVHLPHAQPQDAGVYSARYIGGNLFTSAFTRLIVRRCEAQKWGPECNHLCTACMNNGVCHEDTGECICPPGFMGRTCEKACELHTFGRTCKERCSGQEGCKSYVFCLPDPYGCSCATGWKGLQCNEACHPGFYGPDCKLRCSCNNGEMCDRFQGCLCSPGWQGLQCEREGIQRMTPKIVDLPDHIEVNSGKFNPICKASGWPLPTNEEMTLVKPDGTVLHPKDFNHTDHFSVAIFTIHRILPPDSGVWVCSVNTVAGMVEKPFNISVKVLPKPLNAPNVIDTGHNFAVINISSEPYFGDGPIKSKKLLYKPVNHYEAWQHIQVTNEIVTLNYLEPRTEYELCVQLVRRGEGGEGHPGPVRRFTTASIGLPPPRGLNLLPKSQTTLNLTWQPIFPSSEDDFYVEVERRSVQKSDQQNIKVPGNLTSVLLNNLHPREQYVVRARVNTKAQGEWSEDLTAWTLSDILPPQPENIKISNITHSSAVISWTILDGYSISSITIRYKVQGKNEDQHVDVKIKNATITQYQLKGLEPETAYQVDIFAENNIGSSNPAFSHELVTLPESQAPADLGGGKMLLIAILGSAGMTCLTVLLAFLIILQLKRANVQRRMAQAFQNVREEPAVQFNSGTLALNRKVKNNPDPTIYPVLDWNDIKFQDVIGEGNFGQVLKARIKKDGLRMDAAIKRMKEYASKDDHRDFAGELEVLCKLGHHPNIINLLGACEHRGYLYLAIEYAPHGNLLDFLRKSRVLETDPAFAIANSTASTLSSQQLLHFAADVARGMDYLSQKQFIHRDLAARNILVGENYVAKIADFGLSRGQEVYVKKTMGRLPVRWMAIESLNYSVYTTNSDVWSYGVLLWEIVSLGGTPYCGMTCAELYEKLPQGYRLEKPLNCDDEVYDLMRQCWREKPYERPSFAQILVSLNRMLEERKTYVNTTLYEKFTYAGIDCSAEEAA
Chain of UniProt O43353 (whole entry, looked up): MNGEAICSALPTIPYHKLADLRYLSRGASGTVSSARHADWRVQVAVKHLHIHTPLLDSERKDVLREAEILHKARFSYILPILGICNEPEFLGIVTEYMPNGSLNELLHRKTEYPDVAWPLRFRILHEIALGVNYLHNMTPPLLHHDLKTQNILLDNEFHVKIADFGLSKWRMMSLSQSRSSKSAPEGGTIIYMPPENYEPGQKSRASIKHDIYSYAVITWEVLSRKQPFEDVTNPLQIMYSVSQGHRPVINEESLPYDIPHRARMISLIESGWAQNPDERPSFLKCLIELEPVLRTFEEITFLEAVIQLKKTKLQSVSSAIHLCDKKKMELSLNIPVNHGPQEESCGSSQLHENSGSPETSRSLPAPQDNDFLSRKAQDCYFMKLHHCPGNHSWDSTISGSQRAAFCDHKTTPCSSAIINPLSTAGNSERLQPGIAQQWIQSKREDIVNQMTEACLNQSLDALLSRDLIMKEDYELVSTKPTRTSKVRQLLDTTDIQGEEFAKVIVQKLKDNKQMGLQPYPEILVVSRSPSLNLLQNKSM
Chain of UniProt Q99558 (whole entry, looked up): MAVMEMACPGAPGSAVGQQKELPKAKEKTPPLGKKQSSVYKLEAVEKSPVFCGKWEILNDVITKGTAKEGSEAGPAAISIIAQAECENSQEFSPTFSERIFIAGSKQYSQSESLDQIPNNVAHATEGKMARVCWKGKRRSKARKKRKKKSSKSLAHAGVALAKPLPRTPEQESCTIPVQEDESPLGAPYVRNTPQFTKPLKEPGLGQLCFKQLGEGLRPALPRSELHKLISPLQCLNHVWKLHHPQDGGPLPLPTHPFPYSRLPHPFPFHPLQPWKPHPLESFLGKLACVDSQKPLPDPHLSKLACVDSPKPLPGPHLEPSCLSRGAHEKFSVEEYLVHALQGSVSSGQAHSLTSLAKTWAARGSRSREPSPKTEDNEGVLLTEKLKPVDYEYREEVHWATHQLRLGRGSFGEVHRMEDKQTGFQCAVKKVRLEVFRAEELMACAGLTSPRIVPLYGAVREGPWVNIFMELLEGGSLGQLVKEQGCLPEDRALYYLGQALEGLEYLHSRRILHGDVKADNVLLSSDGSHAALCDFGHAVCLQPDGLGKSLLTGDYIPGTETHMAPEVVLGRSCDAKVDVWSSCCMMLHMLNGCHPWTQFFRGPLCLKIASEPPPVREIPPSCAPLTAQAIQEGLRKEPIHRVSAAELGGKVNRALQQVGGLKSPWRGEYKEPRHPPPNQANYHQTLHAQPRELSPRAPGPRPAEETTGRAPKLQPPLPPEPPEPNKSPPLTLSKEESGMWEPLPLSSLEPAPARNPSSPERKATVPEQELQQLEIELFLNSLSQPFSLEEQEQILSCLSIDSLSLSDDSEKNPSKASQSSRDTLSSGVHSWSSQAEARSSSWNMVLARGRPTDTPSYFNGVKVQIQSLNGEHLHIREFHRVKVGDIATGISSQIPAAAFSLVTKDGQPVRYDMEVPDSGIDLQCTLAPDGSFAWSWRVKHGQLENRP
Chain of UniProt Q8WTQ7 (whole entry, looked up): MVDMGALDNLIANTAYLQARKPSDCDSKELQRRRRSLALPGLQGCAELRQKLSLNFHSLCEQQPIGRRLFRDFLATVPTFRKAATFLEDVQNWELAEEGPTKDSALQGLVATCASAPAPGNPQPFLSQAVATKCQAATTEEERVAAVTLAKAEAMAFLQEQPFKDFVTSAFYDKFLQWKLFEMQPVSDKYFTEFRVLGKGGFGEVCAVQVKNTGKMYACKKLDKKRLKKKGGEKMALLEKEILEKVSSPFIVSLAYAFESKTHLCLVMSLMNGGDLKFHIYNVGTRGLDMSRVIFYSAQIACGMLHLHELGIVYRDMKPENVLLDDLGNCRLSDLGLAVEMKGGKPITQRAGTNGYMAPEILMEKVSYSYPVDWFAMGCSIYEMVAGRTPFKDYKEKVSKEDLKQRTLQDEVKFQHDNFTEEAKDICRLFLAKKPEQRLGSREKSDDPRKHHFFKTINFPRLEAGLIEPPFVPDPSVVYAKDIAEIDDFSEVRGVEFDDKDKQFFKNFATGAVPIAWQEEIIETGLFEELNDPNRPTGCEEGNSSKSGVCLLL

Block 1 — Compound: CC(C)(O)c1cncc(-c2nc3ccc(F)cc3n2C2CC2)c1; read-out: cell-free assay; technique: competition with immobilised ligand; tested at: 1 µM
target | remaining binding
Tyrosine-protein kinase SYK (SYK, Homo sapiens, UniProt P43405) | 100%
Beta-adrenergic receptor kinase 1 (GRK2, Homo sapiens, UniProt P25098) | 100%
Receptor-interacting serine/threonine-protein kinase 2 (RIPK2, Homo sapiens, UniProt O43353) | 100%
Serine/threonine-protein kinase pim-1 (PIM1, Homo sapiens, UniProt P11309) | 92%

Block 2 — read-out: enzyme activity; action: inhibitor; tested at: 0.5 µM; reference: control
Structure (SMILES): N#CC(c1ccnc(NCCc2cccnc2)n1)c1nc2ccccc2s1 (centres unmarked)
target | remaining activity
Serine/threonine-protein kinase Nek1 (NEK1, Homo sapiens, UniProt Q96PY6) | 70%
Activin receptor type-1B (ACVR1B, Homo sapiens, UniProt P36896) | 97.1%
Fibroblast growth factor receptor 1 (FGFR1, Homo sapiens, UniProt P11362) | 99%
Tyrosine-protein kinase Lck (LCK, Homo sapiens, UniProt P06239) | 98.3%
Angiopoietin-1 receptor (TEK, Homo sapiens, UniProt Q02763) | 97.5%
Rhodopsin kinase GRK7 (GRK7, Homo sapiens, UniProt Q8WTQ7) | 113%
Glycogen synthase kinase-3 beta (GSK3B, Homo sapiens, UniProt P49841) | 6.2%
Tyrosine-protein kinase FRK (FRK, Homo sapiens, UniProt P42685) | 97.5%
Mitogen-activated protein kinase kinase kinase 5 (MAP3K5, Homo sapiens, UniProt Q99683) | 102%
Serine/threonine-protein kinase A-Raf (ARAF, Homo sapiens, UniProt P10398) | 97.6%
Macrophage-stimulating protein receptor (MST1R, Homo sapiens, UniProt Q04912) | 93.5%
Mitogen-activated protein kinase kinase kinase 14 (MAP3K14, Homo sapiens, UniProt Q99558) | 109%
Tyrosine-protein kinase Mer (MERTK, Homo sapiens, UniProt Q12866) | 88.9%
Ephrin type-A receptor 3 (EPHA3, Homo sapiens, UniProt P29320) | 75.1%

Block 3 — cell line: A-375; tested at: 100 µM; time: 18 h
Structure (SMILES) | viability
O[C@H]1[C@H](O)[C@@H](O)[C@H](O)[C@@H](O)[C@H]1O | 108%
Cc1c(OCC(F)(F)F)ccnc1C[S+]([O-])c1nc2ccccc2[nH]1 (centres unmarked) | 76.4%
Cn1cnc2c1c(=O)[nH]c(=O)n2C | 97.4%

Block 4 — technique: protein-binding microarray; molecule type: double-stranded DNA, one strand shown; medium: in vitro; tested at: not given; reading: higher = stronger binding
Target: Cyclic AMP-dependent transcription factor ATF-1 (ATF1, Homo sapiens, UniProt P18846, residues 1-271, full length assumed)
Notes: k-mer, scored over probes, only values ≥0.25
Target sequence (chain): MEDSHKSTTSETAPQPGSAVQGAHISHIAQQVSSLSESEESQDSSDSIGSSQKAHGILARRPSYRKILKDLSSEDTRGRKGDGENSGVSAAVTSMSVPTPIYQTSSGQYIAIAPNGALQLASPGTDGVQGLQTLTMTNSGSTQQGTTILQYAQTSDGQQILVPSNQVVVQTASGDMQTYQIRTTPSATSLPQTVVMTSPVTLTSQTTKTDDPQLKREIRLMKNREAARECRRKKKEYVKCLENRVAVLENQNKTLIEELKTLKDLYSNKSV
Oligonucleotide | E-score
ACGTGAC | 0.396
CGTCAAG | 0.265
TATTACA | 0.253
ACCACGT | 0.336
ATGTCAC | 0.327
CGTGTGA | 0.303
ACGTGAA | 0.266
CGTCGTA | 0.317

Excerpt of the above (block 2):
target | remaining activity
Glycogen synthase kinase-3 beta (GSK3B, Homo sapiens, UniProt P49841) | 6.2%
Activin receptor type-1B (ACVR1B, Homo sapiens, UniProt P36896) | 97.1%
Serine/threonine-protein kinase Nek1 (NEK1, Homo sapiens, UniProt Q96PY6) | 70%
Serine/threonine-protein kinase A-Raf (ARAF, Homo sapiens, UniProt P10398) | 97.6%
Tyrosine-protein kinase Mer (MERTK, Homo sapiens, UniProt Q12866) | 88.9%
